Published values collected from several papers.
Numbered parts are unrelated; each lists some results of a single study.

Block 1
Target: Ras GTPase-activating protein-binding protein 1, full length (G3BP1, Homo sapiens, UniProt Q13283)
Chain of UniProt Q13283 (whole entry, looked up): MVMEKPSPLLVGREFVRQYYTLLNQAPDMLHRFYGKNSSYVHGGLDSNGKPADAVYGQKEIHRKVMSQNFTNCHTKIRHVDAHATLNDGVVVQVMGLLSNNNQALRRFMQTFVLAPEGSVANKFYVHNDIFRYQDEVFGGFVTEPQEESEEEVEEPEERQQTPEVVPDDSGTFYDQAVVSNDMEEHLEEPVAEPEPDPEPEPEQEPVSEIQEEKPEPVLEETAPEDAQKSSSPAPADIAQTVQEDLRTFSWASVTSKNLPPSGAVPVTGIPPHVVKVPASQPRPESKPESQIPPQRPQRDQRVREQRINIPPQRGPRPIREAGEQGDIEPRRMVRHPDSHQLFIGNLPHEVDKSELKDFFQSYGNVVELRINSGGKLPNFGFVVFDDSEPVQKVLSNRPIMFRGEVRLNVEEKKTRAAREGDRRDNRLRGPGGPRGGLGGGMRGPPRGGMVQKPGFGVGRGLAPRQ
Technique: RNA Bind-n-Seq
Molecule type: RNA
Matrix: in vitro
Concentration: 200 nM
Setting: whole 134-nt RNA, ends assumed
With: 150 mM KCl
Reference: input library
Direction: higher = stronger binding
Shared flanks, not repeated: GGGAGUUCUACAGUCCGACGAUC … UGGAAUUCUCGGGUGUCAAGG
Strand | log2 enrichment
GUCCUGUGCUACACAUCGUAUGUACCGAAUCAAACCCCCAAACCCCCCCAAAUUUAAAAAAGUAUUAUGUUACGCCGUUCGGAUCUGCAC | -0.127
AGUCCUGUGCUACACAUCGUAUGUACCGAAUCGGGUUUUUUUGGGUUUGGGAAAGGGAAAGUAUUAUGUUACGCCGUUCGGAUCUGCACU | -0.265
CUCAAGUCCUGUGCUACACAUCGUAUGUACCGAAUCGGUUUGGAAAGGAAAGGAAAGUAUUAUGUUACGCCGUUCGGAUCUGCACUUCCA | -0.361
UCCUGUGCUACACAUCGUAUGUACCGAAUCAAACCCCCAAAUUUUUUUAAACCCCCAAAAAAGUAUUAUGUUACGCCGUUCGGAUCUGCA | -0.271
GUCCUGUGCUACACAUCGUAUGUACCGAAUCAAAUUUUUAAACCCCCCCAAACCCAAAAAAGUAUUAUGUUACGCCGUUCGGAUCUGCAC | -0.136
AAGUCCUGUGCUACACAUCGUAUGUACCGAAUCAAAUUUAAAUUUAAACCCCCAAAAAAGUAUUAUGUUACGCCGUUCGGAUCUGCACUU | -0.277
UUCCUCAAGUCCUGUGCUACACAUCGUAUGUACCGAAUCGGAGGAGGAGGGAAAGUAUUAUGUUACGCCGUUCGGAUCUGCACUUCCAGC | -0.662
GUCCUGUGCUACACAUCGUAUGUACCGAAUCGGUUUUUGGGGUUUUUGGGUUUUUGGGGAAAGUAUUAUGUUACGCCGUUCGGAUCUGCA | -0.528

Block 2
Target: Histone acetyltransferase KAT6A, winged helix 2, GST fusion (KAT6A, Homo sapiens, UniProt Q92794, residues 85-181)
Technique: protein binding microarray
Molecule type: double-stranded DNA, one strand shown
Matrix: in vitro
Concentration: not given
Setting: 8-mer, flanks averaged, mean of 2 arrays, mostly near background
Reference: not given
Direction: higher = stronger binding
Residues (chain): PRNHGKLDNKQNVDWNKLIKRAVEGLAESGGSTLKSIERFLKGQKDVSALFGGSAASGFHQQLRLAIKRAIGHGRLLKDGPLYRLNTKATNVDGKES
Strand | E-score
ATATTATC | 0.00931
CGATCGAG | 0.239
TAGAGATA | 0.0938
GGACTTCA | -0.164
CTCATGCC | -0.053
GGTCTATA | -0.227
CAAACTTC | 0.0456

Single results of other studies
Substance | tested on | test | test system | conditions | how to read | quantity | result
PhoQ, residues 284 288 289 292 302 303 ASTSDA | PhoP, residues 12 14 15 18 19 VQALL (Escherichia coli, UniProt P23836) | Sort-seq, refers to: YFP reporter | E. coli | PhoQ-PhoP variant library, with: 10 µM Mg2+ | reference: high Mg2+ state, higher = stronger signaling | fold induction | 11.3
PSMD3 (Homo sapiens, UniProt O43242) | PAAF1 (Homo sapiens, UniProt Q9BRP4) | cross-linking MS | cell fractions | with: DMTMM |  | cross-linked residues | E40 to K65

Some of these lines once more (block 2):
Strand | E-score
TAGAGATA | 0.0938
